Results collected from several papers.
Every numbered part comes from another study and shows a few of its results, in no order. Substitutions count along the parent as printed.

Set 1
Target: Sal-like protein 4, full length isoform B (SALL4, Homo sapiens, UniProt Q9UJQ4-2, residues 1-616)
Method: universal PBM
Molecule type: double-stranded DNA, one strand shown
Medium: in vitro
Tested at: not given
Notes: 8-mer, flanks averaged, mean of replicates
Direction: higher = stronger binding
Quantity: E-score
Construct (chain): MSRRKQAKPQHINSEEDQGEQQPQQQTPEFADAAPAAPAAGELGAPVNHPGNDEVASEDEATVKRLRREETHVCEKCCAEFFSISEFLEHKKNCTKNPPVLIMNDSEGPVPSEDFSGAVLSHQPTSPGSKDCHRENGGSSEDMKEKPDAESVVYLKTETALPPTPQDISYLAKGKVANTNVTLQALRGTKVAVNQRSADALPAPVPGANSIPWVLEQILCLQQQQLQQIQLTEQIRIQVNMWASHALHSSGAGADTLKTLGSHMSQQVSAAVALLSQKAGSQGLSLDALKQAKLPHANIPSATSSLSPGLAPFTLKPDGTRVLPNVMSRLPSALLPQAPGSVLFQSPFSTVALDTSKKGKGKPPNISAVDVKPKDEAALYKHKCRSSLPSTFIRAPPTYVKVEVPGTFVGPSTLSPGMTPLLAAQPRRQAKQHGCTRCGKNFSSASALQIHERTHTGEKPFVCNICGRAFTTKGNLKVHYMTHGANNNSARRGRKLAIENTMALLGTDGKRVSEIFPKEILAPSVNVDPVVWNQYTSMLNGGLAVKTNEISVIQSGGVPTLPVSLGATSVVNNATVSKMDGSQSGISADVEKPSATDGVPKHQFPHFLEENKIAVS
GCTATGTA: 0.151
CTCTTGGC: -0.168
CGACCCGA: -0.212
ACGAATGC: 0.167
AGTCTTGG: -0.0898
TAATCCAA: 0.217
GATAGCTA: 0.047
GCGGACGA: -0.302
ACGCATTC: -0.0717
CCCCTCTA: -0.214
CTAGTACC: -0.052
CCTTGTTC: -0.107
TGCTTAAA: 0.145
CTTCTTGA: 0.104
AATACGGC: -0.0363
CTGAAGCA: -0.0657
CATAGGCC: 0.00286
CGTTTTTC: 0.125
GATTACGA: 0.13
CCAGCCCA: -0.35
CAAAAACA: 0.16
AGGGCTGC: -0.317
ACGACAGC: -0.0809
CCGTTGCC: -0.271
AGATGTTG: -0.104

Set 2
Target: RNA binding protein fox-1 homolog 2, RRM domain, GST-SBP tag (RBFOX2, Homo sapiens, UniProt O43251-10, residues 100-194)
Method: RNA Bind-n-Seq
Molecule type: RNA
Medium: in vitro
Tested at: 365 nM
Notes: natural RNA segment, single round, ends assumed
Reference: no-protein control
Direction: higher = stronger binding
Quantity: RBNS enrichment (R)
All sequences stand within: GGGAGUUCUACAGUCCGACGAUC … UGGAAUUCUCGGGUGCCAA
Residues (chain): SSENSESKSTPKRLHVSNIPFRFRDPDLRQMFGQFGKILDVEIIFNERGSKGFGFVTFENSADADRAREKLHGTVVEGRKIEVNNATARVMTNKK
CUGUUCCUUUGGCAAGCUUUAUCAGUAGCUUAACAACAGAAGAGAAGAGUUCAAACAGAUGAUGUUUUUUCCAAAGAAAAACAAAUUGUUGACUCUCUUCCAUGCAUAUU: 0.425
AAACAGGAUCUAUCAUGGUGGCACGGAGUCAGCUAGAUGUUGUCUCUUGCUAUCCCUGUGCUAGUUCCAUGUUUUAGAAGCAAAGUGAUACUGGGGAGGAGAGGAGGGCA: 0.586
CUACUUGGGAGGCUGAGGCAGGAGAAUCGCUUGACUCCAGGAGGCGCAGGCUGCAGUGAGCUCUGAUGGUACCACUGCACUCCAGCCUGGGUGACAGAGCGAGACCCUGU: 0.335
GUUUACAGCGAUUCCGUGGACCGGGGGUAUUUUGAUCAGGGGUGGUUUUGGUCUGGGAGGGUUUUGUUUGUUGGGUUUUUUUAAAAAAAAAUGACAAUGAAGAGACACUU: 0.991
GAAAUGGGAUGUGAGAAUGAUGAAACCCGACAGAAGUAUCUCAGCCUGCAGUCAGUUAUUAUGUAUAGGAGGUGAGCUAGUUAACAAACUUGUACCACAAAACAAUAUCG: 0.798
CACUGGGAGCUCAAAAUUUGCCUCCCUGUUAGUCUUUAAUAACUGAGUAGAGUAGCUUUUUUAUUCUUAGAUUAUAGUGAUAUUCUGUAGUGCUUCAAAUACUUAGAAUU: 0.541
GGAGCAGCUCUCUUAAGGAGAAACAAAUCUAUUUAGAGAAACAGCUGGCCCUGCAAAUGUUUACAGAAAUGAAAUUCUUCCUACUUAUAUAAGAAAUCUCACACUGAGAU: 0.602
AACUGUUUUCUUUCUUUUUUCCUGUCUCCCUCCCGUCCUUUGUGGUGGGAGGGCAGGAGGCCCAAUGGUUGAAAAUAAGAGGGUUCCCGCCCAGAACUCUUCUUGUGAGA: 0.226
CACAUGACCCAGGAGAUUCCCAGACUCUGUUAGUAGUGUCUAGGAACUUGUGUUCCAGCUGAGGAGUGUCCCAGGUGUUAACGAGACUGAGGCCUAUUGCUGGAGUUCAG: 0.751
GAUAAAACUAAUGGCAGAAAAAGAAGUUGAGCAAUUUCUAUGUAAUGUACAGAUACUAGCAUUGCACAUAUAGUCUGCUUUCUGUUCCUCCAGAAUUUGAGUCCUGUUAA: 0.586
CACCACUCCCAGGCCUCUGACAUGAGGGACAUGUGACAGUGUCAUUCAGUAUUAUGUUCAAAAGACAUUUUUAUCCUGAUCAUAAUUAAUUUGAAAACUCUUUAAGUUCA: 0.287
AGAAACACAACUGUUAUCUUGACAGAGGAAGAGAGGAAUCCAAGAAAAAUGCAUGUGGAGAAUUAAACCCAAGUGUUUCGAAUUCAGCACACCCCCUCUCUGUCCUCAGA: 7.75

Set 3
Target: CCNE2, cyclin fold, Cln2 fusion (human)
Method: yeast growth competition, sequencing
Medium: yeast
Notes: weak parent motif
Reference: not given
Direction: higher = stronger binding
Quantity: normalised enrichment score
Starting sequence: SAMHD1 docking peptide (human); ASKSRVQLFKDDP; partner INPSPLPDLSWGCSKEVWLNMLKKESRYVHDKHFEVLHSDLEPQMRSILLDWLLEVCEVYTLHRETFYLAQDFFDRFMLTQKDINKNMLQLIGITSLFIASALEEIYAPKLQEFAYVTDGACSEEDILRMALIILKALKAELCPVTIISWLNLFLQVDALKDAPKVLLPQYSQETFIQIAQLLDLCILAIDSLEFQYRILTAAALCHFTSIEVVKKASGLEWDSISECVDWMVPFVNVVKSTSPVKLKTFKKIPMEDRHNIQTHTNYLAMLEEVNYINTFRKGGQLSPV
K3V: -0.0797
L8E: -0.0926
D12H: 0.599
V6N: 0.0363
R5G: 0.282
V6G: 0.0872
L8A: -0.104
F9R: 0.429
K3P: -0.182
S4M: 0.0894
V6Y: 0.163
L8P: -0.0991
S4L: 0.191
K3C: -0.19
K10Y: -0.318
V6S: -0.394
Q7R: 0.768
Q7H: 0.564
S2H: 0.305
D12C: 0.254
V6K: 0.448
V6L: 0.185
D12P: 0.231
K10C: 0.175
K3A: 0.243

Set 4
Target: Histone acetyltransferase KAT6A, winged helix 1, GST fusion (KAT6A, Homo sapiens, UniProt Q92794, residues 1-85)
Method: protein binding microarray
Molecule type: double-stranded DNA, one strand shown
Medium: in vitro
Tested at: not given
Notes: 8-mer, flanks averaged, mean of 2 arrays, mostly near background
Reference: not given
Direction: higher = stronger binding
Quantity: E-score
Residues (chain): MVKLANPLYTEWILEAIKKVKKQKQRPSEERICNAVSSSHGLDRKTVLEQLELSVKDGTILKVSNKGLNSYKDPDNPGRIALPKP
AAGAATTA: -0.0656
AATAGTCT: -0.161
AATACTCG: 0.0764
AATAGAAT: -0.294
AAGTGCCT: -0.254
ACTGTATA: -0.0709
AACGTGGC: -0.137
AAGATTGT: -0.245
TCCTTAGA: -0.205
GACGTACC: -0.0438
TAGCCAGA: -0.103
ACGTAACA: -0.165
GTATACGA: -0.102
GCGCATAA: 0.192
CTCCGTCA: 0.0257
ATGGAATG: -0.0285
ACTTCAAC: -0.153
CCCAAATC: -0.119
CTGTCGGA: -0.023
AAGGTACC: -0.0177
AAGTACGG: 0.279
AATCTTTA: -0.128
ACGCAGCG: 0.269
ACCGGTCG: 0.219
TACAATGA: -0.241

Set 5
Target: Ras GTPase-activating protein-binding protein 1, full length (G3BP1, Homo sapiens, UniProt Q13283)
Chain of UniProt Q13283 (whole entry, looked up): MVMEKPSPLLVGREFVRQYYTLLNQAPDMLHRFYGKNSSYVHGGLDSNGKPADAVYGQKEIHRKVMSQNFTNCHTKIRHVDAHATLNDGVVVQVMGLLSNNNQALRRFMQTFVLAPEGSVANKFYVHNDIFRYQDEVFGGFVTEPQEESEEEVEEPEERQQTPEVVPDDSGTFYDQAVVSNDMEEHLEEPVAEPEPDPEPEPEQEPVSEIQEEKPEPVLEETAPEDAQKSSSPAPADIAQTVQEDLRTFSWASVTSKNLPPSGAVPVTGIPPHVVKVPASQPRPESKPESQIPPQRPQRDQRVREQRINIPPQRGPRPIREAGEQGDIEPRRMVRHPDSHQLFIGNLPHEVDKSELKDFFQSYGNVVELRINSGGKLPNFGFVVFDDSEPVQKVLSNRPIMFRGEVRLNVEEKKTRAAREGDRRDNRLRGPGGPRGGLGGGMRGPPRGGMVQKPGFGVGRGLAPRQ
Method: RNA Bind-n-Seq
Molecule type: RNA
Medium: in vitro
Tested at: 200 nM
Notes: whole 134-nt RNA, ends assumed
Added: 150 mM LiCl
Reference: input library
Direction: higher = stronger binding
Quantity: log2 enrichment
Each molecule: 7-deaza-guanosine replaces G
All sequences stand within: GGGAGUUCUACAGUCCGACGAUC … UGGAAUUCUCGGGUGUCAAGG
UCCUGUGCUACACAUCGUAUGUACCGAAUCGGGGUUUUUGGGGUGGGGUUUUUUUGGGGAAAGUAUUAUGUUACGCCGUUCGGAUCUGCA: -0.582
ACUGGACCAGAUUGUUGAAAAAGGAAGACCAGCUCCUGGCUUCCAUCAUGGCGAUGGACCGGGAAAUGCAGUUCAAGAAAUCAUGAUUCC: -1.53
UUCUGAGAAGGUUGCGCAGCAGCUGUGCCCGGCAGUCUAGAGGCGCAGAAGAGGAAGCCAUCGCCUGGCCCCGGCUCUCUGGACCUUGUC: -1.47
ACCAUGCAGGUGGGCAUCUUUGGGAAGUGGGGCAAGGGGGGGAUAGGGAGGGGGGUAACACUUUGUGAACAGGUGGUCCCAGGUCGUUUC: 0.0386
UGGGAGGUGGAUUUUGUUUAUUUUUUUAGCUCAUUUCCAGGGGUGGGAAUUUUUUUUUAAUAUGUGUAAUGAAUAAAGUUGUUUUUGAAA: -0.259
UGGCCCUGGUGGCAUGCGGGGAGGAAGAGGUGGCCUCAUGGAUCGUGAUGGUCCCGGUGGAAUGUUCAGAGGUGGCCGUGGUGGAGACAG: 0.119
UCCUGUGCUACACAUCGUAUGUACCGAAUCGGGGUUUUUUUGGGGUUUUUGGGGUGGGGAAAGUAUUAUGUUACGCCGUUCGGAUCUGCA: 0.39
AAGUCCUGUGCUACACAUCGUAUGUACCGAAUCGGGGUGGGGAGGGGAAAAAGGGGAAAGUAUUAUGUUACGCCGUUCGGAUCUGCACUU: 0.676
UCCUGUGCUACACAUCGUAUGUACCGAAUCGGGGUUUUUGGGGUUUGGGGUUUUUGGGGAAAGUAUUAUGUUACGCCGUUCGGAUCUGCA: -0.221
CAAGUCCUGUGCUACACAUCGUAUGUACCGAAUCGGUUUUGGGUUUUGGUUUUGGAAAGUAUUAUGUUACGCCGUUCGGAUCUGCACUUC: -0.792
CUCAAGUCCUGUGCUACACAUCGUAUGUACCGAAUCGGCCGGGCCGGGCCGGGGAAAGUAUUAUGUUACGCCGUUCGGAUCUGCACUUCC: 0.532
